# Results pooled from the literature.
# Each numbered part is a random draw from the data of one study; scales do not carry over between parts.

# Set 1
# Target: Prothrombin, mature alpha-thrombin (F2, Homo sapiens, UniProt P00734)
# Method: aptamer microarray, sandwich
# Form: DNA with 2'F-ANA
# Matrix: in vitro
# Tested at: 200 nM
# Setting: whole 15-mer aptamer, many near background
# Together with: Cy3 exosite-II aptamer, 400 nM
# Direction: higher = stronger binding
# Strand: GGTTGGTGTGGTTGG
Modification,mean fluorescence intensity
2'F-ANA at 1 4 5 6 7 8 10 13 15,46.7 a.u.
2'F-ANA at 1 2 3 4 5 9 13 14,48.2 a.u.
2'F-ANA at 3 4 5 11 12 14,56.6 a.u.
2'F-ANA at 2 3 5 9 10 12 13 14,78.1 a.u.
2'F-ANA at 2 4 8 12 14 15,154 a.u.
2'F-ANA at 1 3 4 5 6 7 8 9 13,59.1 a.u.
2'F-ANA at 1 3 7 8 9 10 12 13 14,65.6 a.u.
2'F-ANA at 6 9 13 14 15,300 a.u.
2'F-ANA at 2 6 10 11 13 14 15,71.2 a.u.
2'F-ANA at 1 4 5 7 9 13 14,41.2 a.u.
2'F-ANA at 7 9 10 11 12 14 15,106 a.u.
2'F-ANA at 1 2 3 5 9 14,126 a.u.
2'F-ANA at 2 3 5 6 7 8 9 10 11 15,55.4 a.u.
2'F-ANA at 1 3 5 7 8 10 11 12 15,68 a.u.
2'F-ANA at 3 4 6 8 9 11 12 13 14 15,244 a.u.
2'F-ANA at 2 4 6 9 14,78.8 a.u.
2'F-ANA at 1 3 4 6 13 15,136 a.u.
2'F-ANA at 3 4 5 6 7 11 12,159 a.u.
2'F-ANA at 1 9 10 11,52.4 a.u.
2'F-ANA at 3 4 5 8 10,51.8 a.u.
2'F-ANA at 1 3 7 10,87.1 a.u.
2'F-ANA at 2 4 6 9 11 13,148 a.u.
2'F-ANA at 2 3 5 9 11 13 14 15,47.5 a.u.
2'F-ANA at 1 2 5 7 9 10 11 13 14,42.7 a.u.
2'F-ANA at 3 5 8 9 10 11 12 14 15,54.8 a.u.

# Set 2
# Target: RNA binding protein fox-1 homolog 2, RRM domain, GST-SBP tag (RBFOX2, Homo sapiens, UniProt O43251-10, residues 100-194)
# Method: RNA Bind-n-Seq
# Form: RNA
# Matrix: in vitro
# Tested at: 365 nM
# Setting: natural RNA segment, single round, ends assumed
# Relative to: no-protein control
# Direction: higher = stronger binding
# All sequences stand within: GGGAGUUCUACAGUCCGACGAUC … UGGAAUUCUCGGGUGCCAA
# Residues (chain): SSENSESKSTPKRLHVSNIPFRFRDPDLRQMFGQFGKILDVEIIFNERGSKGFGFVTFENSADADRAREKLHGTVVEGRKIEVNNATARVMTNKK
Strand,RBNS enrichment (R)
CCCUACGCCCUUUUUGGUACACUUAGAAGUUUUCCUUUUCCAUCAAUGGUACUGUUUCUUAGUGUUUUCAAUUGGAACAUAUCUUGUCUCACAGAGCUUUAAAUUAUUCU,0.416
CCCCGAACCAUGCAUCCAAGUGCAGGCUGGGCUGCGGAUCCUUUUUGGGACCUCGAGGGGACAGCAAGAGAGAAUGAGAGAGGAGCUCCAAUGUGAGCUUUUCGUUCUUA,1.24
CAAGAAGGUUUCCUAUACUAUACAUAUAUAUACGUUCUGGUUGGCAAGCCCUGCUGAUCAGAGAAAGUCUCUGCAUGUUCUAGUGUUAGUAACUAAUUUUUAUAUAGUUA,0.598
AAGGUGGUUCGCUUUGAGGUGGUCUGAAGCCAAGGCCUCGCGGAGCUUCUUUGUGUGUCACCUUGCUUCCACGUUUCAGUUCUUGUUUUGUUUCUACUGCUUUAGUUUUU,0.901
GGGCCACGGGCGCGAGACUGCCCGACGCCACGGCCCCGCGCCCCUCCCGGUCCUCCACGCGGACCACUAUGCUUCCCCACCGCAGCAGGCGACCGCGGCGCAGCUCCCAC,0.389
GGCUGCGAGCAUUUCCCUCCCGGGAGAGGAGAUCAGGGCGACCUGCACGCACUGCGUAGAGCCUGGAAGGGAAGUGAGAAACCAGCCGACCGGCCCUGCCCCUCUUCCCG,0.494
UUUAACUAGACUAUAGGUAGUUCCUUAAGGUUGUUUGACCUGAAGUGGAGUUGGGUUUGGAAGCUGGUGCCCAGUUGGUGUGGAGUGUGUAGUUUUGUUAUGAAAGUUCU,1.14
UCUGUAGUUAACAGAACACUGUAAUGUGCCUUGGAGCUUAGUAACUUGUAAUAAAUUCAAUUGAUAUAACUGCGCUGAGUCAGCAAUUUUGUCUUUCUAGGGCUAAGGCC,0.694
UUCAUGACAGAGAAGGGGAAGCCCUGUUCUGACAACAGACAUUUCAGACAACCUUGCUGGCUUUCCACACCUGCCUGGCCCCCUCCUCCCUCCACACUUCCACUUUGUCC,0.328
ACCUGAAUCUGUGCAUUUUGUGCCUUAUUCAUGAGAAUGAUAGAAGUACUAAAAUCUGUCAAGUGUUUUCAGUAUAGCACAUUAUUUACUGAGUGCCAGUUGUAAAUGUU,0.537
UGACUAACAUUUUCCAGCGCCUACUAUGUGUCAGAAACAAGUGUUUCUGCCUGGACAUCAUAAAUGGGGACUUGGACCCUGAGGAGAGUCAGGCCACGGUAAGCCCUUCC,0.342
CAACACUACCCAGGACUCUUGCUACCUGGUUCCAACUCCAGACAACCACUAUGCCAGGCCCGGAGCCUCUGAGGCAUCGGCCAGUCCAGGCCCUCAUCUGAGGUAAGAAU,0.271

# Set 3
# Target: Histone acetyltransferase KAT6A, winged helix 1, GST fusion (KAT6A, Homo sapiens, UniProt Q92794, residues 1-85)
# Method: protein binding microarray
# Form: double-stranded DNA, one strand shown
# Matrix: in vitro
# Tested at: not given
# Setting: 8-mer, flanks averaged, mean of 2 arrays, mostly near background
# Relative to: not given
# Direction: higher = stronger binding
# Target sequence (chain): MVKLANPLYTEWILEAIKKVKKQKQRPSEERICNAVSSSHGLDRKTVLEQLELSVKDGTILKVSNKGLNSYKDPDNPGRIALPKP
Strand,E-score
CGCAATCA,0.159
TGCCTTAA,-0.19
GCAAGGAA,-0.103
AGTATAAC,0.0217
AACGGTTA,0.114
ACGGCAAG,0.286
CCCGCTTA,0.223
ATGAGTGC,-0.0168
CTCACTTC,-0.165
CCCATGAC,-0.184
GGGTTCAC,0.214
ATGTAGTG,-0.224
AGCGCGTA,0.379
GGCTACTA,0.095
CATAACGC,0.11
AGGGTCTG,-0.166
TAAACCCA,-0.227
GCAGTAGC,0.0473
CTGACATA,-0.0878
AGGCGTAT,-0.0896
CATGTACA,-0.108
CGATAGAA,-0.0597
ATGCGATC,-0.0233

# Set 4
# Target: RING finger protein unkempt homolog, zinc fingers 1-6, GST-SBP tag (UNK, Homo sapiens, UniProt Q9C0B0, residues 30-357)
# Method: RNA Bind-n-Seq
# Form: RNA
# Matrix: in vitro
# Tested at: not given
# Setting: RNA with constant flanks, ends assumed
# Relative to: input RNA pool
# Direction: higher = stronger binding
# All sequences stand within: GGGAGUUCUACAGUCCGACGAUC … CAACAGAGGAUUGAGCAUCA
# Construct (chain): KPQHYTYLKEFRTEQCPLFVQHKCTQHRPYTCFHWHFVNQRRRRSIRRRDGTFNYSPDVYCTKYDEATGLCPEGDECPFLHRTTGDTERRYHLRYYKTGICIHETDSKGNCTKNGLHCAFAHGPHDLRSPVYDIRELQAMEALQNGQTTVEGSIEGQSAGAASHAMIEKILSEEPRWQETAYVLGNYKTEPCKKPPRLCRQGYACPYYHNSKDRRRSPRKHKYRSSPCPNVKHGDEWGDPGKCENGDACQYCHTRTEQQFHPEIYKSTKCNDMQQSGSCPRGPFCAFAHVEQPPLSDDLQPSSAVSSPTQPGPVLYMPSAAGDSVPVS
Strand,bound/input enrichment [ratio]
AAUGCAUCUCUUCAAGACCAUAUUUACCCGAGCUGUUUUGGGAACACUCCAGACUGGAACCGUUCUAAAUUUAUAAGUCUUUGGGAAUCAGAAAUGAUGAAUGAUAAGAACUGGAACCCU,0.175
GGCUGCUGAUUGUGUUCUAAGGGUCGGAGUGGGGUCGACGUUUGCUCUACCGGAACAGCUCCGCUCAUUCCUCCCUUUCCAUUACCUGUGGCGCGGAGAGUUGGGGCGGCGGCUGCGUCA,0.242
UAGGAGUGCAGCCAGAUGGUUUAGACAAAUAACCUCUGCCUGCCAGCCGUUGGGGUGAUGAUCCGAAUGUUAUUGAAGAUAGUGGUUAUGGUUGGGGCUUAUAAUGCCGACUGCAUUUGA,0.893
GGGAUUUCAUUUAUCUUUUGCUGUUUCCGAAACAAUGACCAUCCAGAAAUCACAUAUCGGCUCCGGAAUGAUAGCAACUUUGCACUUCAGACAAUGGAGCCGGCGCUGCCCAUGCCCCCU,0.0825
CACAGAGGAGAUCUGCUGUUCCUCACGAAUUUCCGGGAGGACCCCAUCAGAGCUGGUGAAACCGUUGUUUUUAAGGUUGAAGGAAGAGACAUUCCGAUAGUUCACAGAGUAAUCAAGGUU,0.286
AUAUUACUGCUGUGUAGAAACAUUAGUAGUGUUUUCAUUUUAGGUCCAAGUAAGAUGUUUUCCGUGAUAUACCUGCAGAAUGGCUCUGUCUUAAAACUGUGUAGAAAAACCCUAAUCUUU,0.631
CCAGAUGACCGGUCACAGGGAGCAAUCAUUGCUGACCGGCCAGGGCUGCCUGGCCCAGAGCACCGCCCUUCAGAAUCCCAGCCUUCGUCGCCUUCUCCGACCCCAUCACCAUCCCCAGUC,0.204
ACUGGUGGUGCAGCCUCUGUGAAGCAGCACCAUUCAAGUGCCCAUAACAAAGAUAUUGCUUCCGGGGUAUUUGAUGUGGUGGUGACGGACCCCUCAUGCCCAGCCUCGGUGCUGAAGUGU,0.0788
CUCUCUCCAUACCAUCAGUUUCUCAGUUCCAGAAGUUAUACCUUUAUUUUGAGCUGUGUACCGGCCGAAUAAAAAAUUCCUUUCAUAUCGUUAUUGUACAAAAAGUAAAGAGUAUCCUAA,0.346
AGCAAUCCAGAUCUCUAUGGUCCCUUUUGGAUAUGUGCCACGUUGGUCUUUGCCACCGCAAUCCGUGGGAACCUUUCUAACUUCCUAAUCCAUCUGGGAGAGAAGACAUACCAUUAUGUG,0.109
UUCCCUGGAGAGUUCAUGAAGAGCUGGAGUGAUUGUCUCAACAAGGAGGGCUUUGACAAAGCCGACAUCAGCGCUGUUGUGGCAUACACCAUUGCUGUGAAAGAGGACGGUGAGCUCAAC,0.104

# Repeated from above (set 1):
Modification,mean fluorescence intensity
2'F-ANA at 3 4 5 6 7 11 12,159 a.u.
2'F-ANA at 1 3 5 7 8 10 11 12 15,68 a.u.
2'F-ANA at 3 4 5 11 12 14,56.6 a.u.
2'F-ANA at 1 9 10 11,52.4 a.u.
